Results pooled from the literature.
Each numbered part is a random draw from the data of one study; scales do not carry over between parts. Positions count from the first letter of the parent shown.

Set 1 — method: DHFR PCA, deep sequencing; sample: yeast; with: (+)-ABA 0 µM; baseline: wild-type fitted maximum; reading: higher = stronger binding
Target: ABI1, truncated, D143A, DHFR fusion (Arabidopsis thaliana)
Setting: methotrexate growth selection, single substitutions
Starting sequence: PYL1, truncated, DHFR fusion (Arabidopsis thaliana); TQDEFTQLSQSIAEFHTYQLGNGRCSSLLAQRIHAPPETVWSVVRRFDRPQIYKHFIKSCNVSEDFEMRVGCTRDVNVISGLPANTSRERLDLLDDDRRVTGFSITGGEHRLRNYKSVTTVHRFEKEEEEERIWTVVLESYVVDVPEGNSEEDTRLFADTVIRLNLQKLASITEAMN; partner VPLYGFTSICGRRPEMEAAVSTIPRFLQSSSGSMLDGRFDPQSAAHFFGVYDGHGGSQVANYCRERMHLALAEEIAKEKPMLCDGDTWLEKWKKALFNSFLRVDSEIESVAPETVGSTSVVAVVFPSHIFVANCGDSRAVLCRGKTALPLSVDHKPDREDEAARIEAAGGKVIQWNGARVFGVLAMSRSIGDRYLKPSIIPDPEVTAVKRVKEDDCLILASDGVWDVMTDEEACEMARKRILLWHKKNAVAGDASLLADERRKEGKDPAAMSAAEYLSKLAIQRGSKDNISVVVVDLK
| Substitution | relative binding score |
| --- | --- |
| D65N | 27.9% |
| E174Q | 5.29% |
| S59C | 5.78% |
| V62F | -8.14% |
| K58Q | 10.2% |
| L28M | 14.4% |
| R24M | 10.3% |
| Q167R | 20.7% |
| L164N | -5.28% |
| S171T | 35.4% |
| D48R | -1.78% |
| F124H | 7.44% |
| S150T | 43.5% |
| E67Q | 27.6% |
| H16Q | -1.75% |
| R32Y | 12.2% |
| H55G | 3.23% |
| V136W | -14.5% |
| R111I | 3.9% |
| T17M | 3.01% |
| D75S | 17.5% |
| R88M | 9.44% |
| L28C | 8.51% |
| F157P | 1.99% |
| A175G | 27.1% |

Set 2 — method: protein-binding microarray; molecule type: double-stranded DNA, one strand shown; sample: in vitro; concentration: 940 nM top; setting: 60-bp whole probe; with: salmon DNA 0.4 mg/ml; baseline: random background probes; reading: higher = stronger binding; all sequences stand within: GCCTAGCAC … GTCTTGATTCGCTTGACGCTGCTG
Target: Interferon regulatory factor 5, full length, phosphomimetic (IRF5, Homo sapiens, UniProt Q13568-2, residues 1-514, S451D/S453D/S456D/S462D)
| Oligonucleotide | fitted relative affinity [z-score] |
| --- | --- |
| TTCCAAATGCCCTCTCCATACGTGCTA | 0.617 |
| GACGGTATCCTTATCCAGACGTGCTAG | 0.276 |
| GACGAACTGAGGTATCGAGACGTGCTA | 0.516 |
| GACGGTTCCCTTTGCCTGACGTGCTAG | 0.33 |
| TTAGGTCTCAGTATCGATTAGTGCTAG | 5.2 |
| GATTTTTTCTGCTTAGAGCTGTGCTAG | 0.0395 |
| GACGATTCCGGGTATCGAGACGTGCTA | 1.3 |
| TTAGGACTGGGACTGGGGTAGTGCTAG | -0.266 |
| GACGATTTCGACTATCGGGACGTGCTA | 0.544 |
| TTACGACTGGACTTTCGGTTAGTGCTA | 3.1 |
| TCATCCATGCTCTGTCGCACTGTGCTA | 0.0415 |
| GTGTATATGTGATTAAAATAGTGCTAG | 0.186 |
| TTAGGTATCCTACTGATTTAGTGCTAG | -0.222 |
| TTAGGTTTCGACACTGGGTCAGTGCTA | 8.54 |
| TACGGTTTCGGGACTGGGGACGTGCTA | 6.34 |
| GACGGACTGGAATATCGGGACGTGCTA | 0.0668 |
| GACGGTTTCCTTTTCCTGACGTGCTAG | 2.54 |
| TTAGGTATCGGACAGGGTTAGTGCTAG | 3.52 |
| GCCGGTATCGGTATCGGGACGTGCTAG | 10.1 |
| TGAGGTATCGGGTTTCGGTTAGTGCTA | 7.26 |
| CACGGTATCGGGTTTCGGGACGTGCTA | 4.98 |
| GTCGGTCTCGGTTTCGGGACGTGCTAG | 8.89 |

Set 3 — method: universal PBM; molecule type: double-stranded DNA, one strand shown; sample: in vitro; concentration: 600 nM; reading: higher = stronger binding
Target: Sal-like protein 4, full length isoform A (SALL4, Homo sapiens, UniProt Q9UJQ4, residues 1-1053)
Chain of UniProt Q9UJQ4 (whole entry, looked up): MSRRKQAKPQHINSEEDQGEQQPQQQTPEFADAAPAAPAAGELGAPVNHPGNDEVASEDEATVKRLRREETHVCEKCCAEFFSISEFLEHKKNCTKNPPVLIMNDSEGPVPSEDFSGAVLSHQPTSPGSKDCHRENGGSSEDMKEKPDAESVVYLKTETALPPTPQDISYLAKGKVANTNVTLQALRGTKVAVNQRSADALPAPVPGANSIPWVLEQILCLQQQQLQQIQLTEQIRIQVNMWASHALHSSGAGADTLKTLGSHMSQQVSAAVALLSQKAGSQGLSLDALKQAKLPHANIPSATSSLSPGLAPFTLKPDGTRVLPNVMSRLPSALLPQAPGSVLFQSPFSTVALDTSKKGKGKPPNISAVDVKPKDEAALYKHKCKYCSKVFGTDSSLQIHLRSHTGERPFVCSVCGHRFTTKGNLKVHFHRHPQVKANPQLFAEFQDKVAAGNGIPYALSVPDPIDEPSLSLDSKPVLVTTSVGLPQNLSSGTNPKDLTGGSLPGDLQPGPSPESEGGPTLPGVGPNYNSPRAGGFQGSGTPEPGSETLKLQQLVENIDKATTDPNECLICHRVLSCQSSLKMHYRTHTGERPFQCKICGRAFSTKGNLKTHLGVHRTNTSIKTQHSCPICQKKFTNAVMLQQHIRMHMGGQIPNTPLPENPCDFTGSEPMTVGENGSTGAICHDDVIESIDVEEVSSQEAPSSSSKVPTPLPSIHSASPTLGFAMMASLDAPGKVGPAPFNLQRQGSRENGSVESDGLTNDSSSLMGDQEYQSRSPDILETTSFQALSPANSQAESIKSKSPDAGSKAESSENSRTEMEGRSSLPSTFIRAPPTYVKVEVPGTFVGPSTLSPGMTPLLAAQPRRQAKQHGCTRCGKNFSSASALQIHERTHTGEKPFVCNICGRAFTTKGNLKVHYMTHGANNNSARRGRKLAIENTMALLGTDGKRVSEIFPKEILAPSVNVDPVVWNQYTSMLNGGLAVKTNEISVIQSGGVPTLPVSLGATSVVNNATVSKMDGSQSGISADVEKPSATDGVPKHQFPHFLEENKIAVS
Setting: 8-mer, flanks averaged, mean of replicates
| Oligonucleotide | E-score |
| --- | --- |
| GAGGTAGA | -0.157 |
| ATAGCCTC | -0.0609 |
| GCTGAGTA | -0.0458 |
| CCTCCACG | -0.179 |
| AGGCACCA | -0.171 |
| ACAACATC | 0.232 |
| CGCAATGC | -0.167 |
| AGCATCCT | -0.183 |
| TCGAATAA | 0.274 |
| ATGAGAGG | -0.186 |
| CTCTATTA | 0.25 |
| CACGCAGA | -0.0806 |
| AGGCACAA | 0.065 |
| AAAATCCA | 0.258 |
| TGCCGCAA | 0.0564 |
| ACGGAGTC | -0.0899 |
| AACATCAC | 0.167 |
| AGTCTTTC | -0.075 |
| CATCCCTA | -0.106 |
| CATCATGC | 0.0899 |
| CGCAAGGA | -0.22 |

Set 4 — method: protein binding microarray; molecule type: double-stranded DNA, one strand shown; sample: in vitro; concentration: not given; baseline: not given; reading: higher = stronger binding
Target: Histone acetyltransferase KAT6A, both winged helices, GST fusion (KAT6A, Homo sapiens, UniProt Q92794, residues 1-181)
Setting: 8-mer, flanks averaged, mean of 2 arrays, mostly near background
Target sequence (chain): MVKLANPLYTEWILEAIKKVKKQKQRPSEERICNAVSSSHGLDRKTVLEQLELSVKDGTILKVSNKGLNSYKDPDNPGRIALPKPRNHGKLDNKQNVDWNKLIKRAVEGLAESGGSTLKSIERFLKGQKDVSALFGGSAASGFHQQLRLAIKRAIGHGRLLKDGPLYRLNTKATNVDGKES
| Oligonucleotide | E-score |
| --- | --- |
| CCTGATTA | -0.119 |
| GAGAGTCA | -0.217 |
| CATAGAAC | -0.0939 |
| GGACCGCC | 0.135 |
| CCCGAGCC | 0.158 |
| ACGCCAAC | 0.0506 |
| CGCTAACC | 0.216 |
| ATCCGCGC | 0.285 |
| TAACCAGA | -0.123 |
| AACTGGAC | -0.112 |
| CCACCGTA | 0.0617 |
| AAGACATT | 0.0815 |
| AATACGGT | 0.13 |
| ACAAGGAA | -0.109 |
| GATCTTCC | 0.0489 |
| AGTTCTCA | -0.189 |
| AGTTTATC | -0.063 |
| CAGTGGTA | -0.146 |

Set 5 — method: RNA Bind-n-Seq; molecule type: RNA; sample: in vitro; concentration: 365 nM; baseline: no-protein control; reading: higher = stronger binding
Target: RNA binding protein fox-1 homolog 2, RRM domain, GST-SBP tag (RBFOX2, Homo sapiens, UniProt O43251-10, residues 100-194)
Setting: natural RNA segment, single round, ends assumed
All sequences stand within: GGGAGUUCUACAGUCCGACGAUC … UGGAAUUCUCGGGUGCCAA
Residues (chain): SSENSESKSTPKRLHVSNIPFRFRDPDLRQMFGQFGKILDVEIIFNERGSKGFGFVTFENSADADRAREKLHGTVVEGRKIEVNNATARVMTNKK
| Oligonucleotide | RBNS enrichment (R) |
| --- | --- |
| CAGGGGCAAUGGCCCCAACCUCCCUUUCAGACUCCAUGAGCCCAGCCCCUAUGUGCCUAGAUGGUUUGGGGCUACUGGUGCGUGCAGGAGAGGUGGGGUCACCCAAGCUG | 0.407 |
| CGGUGAUCUGUGGCCUUCUGUGGGUAGCACCAAGCCAGUCAGUCCAGACACAUAGUGAGUUCCUGGAGGGUCUACUGCAGCCUGAGGAAAGGGAACCUCAGCUCGUUAGG | 1.16 |
| GUUUAAAGAAAAAUAGUUCACCAAAAUUUAGUAUUAUAUAGUCUGUAUUGUUUGGUUUCAAGUCUCCUAAUUUGAAGUAUGUGGUGUAAUAUUGCAACCCAGUAUAGGUG | 1.28 |
| GUUGUUUGUAUUUUGCUUAACUAAAACAAAAAUGCUUUUAUCUUGCUAUAGAAUAAACACAUUUCAGAAAAUCUGUGGACUGUAUUUUGAUGCAACCGCAAGGACACUGU | 0.481 |
| UACUGUGGUCCAGAAAUCAAUGUGUUUGUCUGACAAAAAAAAUAAUAAAAUAAACUGUUUUGAACAGCUUGUUUAGUGUUCUUGUGUUUGCAGAGGCUGGAGUGGGCAAA | 0.555 |
| CCAUUUUUAUUUCAUUUUUAUUUUUGUUAAUGCAAACAGGACUUAAAUGAACUUUGAUCUCUGUUUUAAAGAUUAUUAAAAAACAUUGUGUAUCUAUACAUAUGGCUCUU | 1.12 |
| AGCAUCCAGACUAGCUGUGAUUACAGGUGUGCACCACCACACCCAGCUACAUUUUUUUUUGGUAGAGACAGGGUCUCACUAUGUUACCCAGUCUGGUCUCAAACUCCCGG | 0.406 |
| AUGACCAGUAUUUCCAGAGUAAGGUGGAAGAUGAGAAAGAGAUAAGUUACCAAGAGAAGCUGGAGGGAUACCUCUGAGUGACUGCUGUGUUUCUUCUAUUGUAGACACCA | 0.683 |
| GAUUUUUCUCUCACUAACUGAAAGUGUGUUGAGUCUCUACUUUCUGUCAGUCGUGUAUUAUACUAAGGCAAGUGUUGUAAAGAUGAAUUACAAAUAGAUCUAGGAACUGG | 0.34 |
| GUGGAUAGUUUGUGGAAAUCAUCCAAUUAAACAUACUGCUUAAAACAGUGUUGCUGUGACUUCAGAGACAAGCCUGGAAGGGGCACCUUAGGAAGCCCCUUCGCUUCAGU | 0.313 |
| GAUCCUGCCCUCUCCAGCUGCUCCUUCAAAAGAUACAUCAAAAGAUAGAAACUCUGGGCUGGGCACAGUGGCUCACACACUUUGGGAGGCCAAGCGGGGGUGCAGAUCAC | 0.346 |
| AAGAACAACAGCAAGUCCGGAUUAAGGAAGUAACAUGCUUCUAGAAUGUUCCAAGACACUUGAGAGAAAAGACCUAGGAAAGAGAAGGUUCCUGGUGAGCCUGUGGUCUA | 1.05 |

Set 6 — target: CCNF, cyclin fold, Cln2 fusion (human); method: yeast growth competition, sequencing; sample: yeast; setting: strong parent motif; baseline: not given; reading: higher = stronger binding
Starting sequence: PKMYT1 docking peptide (human); SFEPRNLLSLFED
| Substitution | normalised enrichment score |
| --- | --- |
| L10C | 0.47 |
| L7W | -0.443 |
| S9Q | 1.33 |
| L10G | 0.438 |
| S9W | 1.49 |
| N6I | -0.301 |
| E12Y | 0.951 |
| L8V | -1.12 |
| S9M | 1.42 |
| R5L | -0.437 |
| L7H | -1.3 |
| L10H | -0.161 |
| S1N | 2.42 |
| L8E | -3.4 |
| P4N | -0.693 |
| P4L | -0.79 |
| N6M | -0.634 |
| L8I | 0.775 |
| S1C | 1.1 |
| R5G | -0.198 |
| N6G | -0.224 |
| F2N | 0.0724 |
| L10R | 0.643 |
| S1K | 1.22 |
| L10I | 0.448 |

Repeated from above (set 1):
| Substitution | relative binding score |
| --- | --- |
| L28M | 14.4% |
| H16Q | -1.75% |
| L164N | -5.28% |
| F124H | 7.44% |
| R32Y | 12.2% |
| S171T | 35.4% |
| D48R | -1.78% |
| H55G | 3.23% |
| R111I | 3.9% |
| L28C | 8.51% |
| S150T | 43.5% |
| Q167R | 20.7% |
